Results of several laboratories.
Parts stem from different laboratories: compare values within a part only. Substitutions count along the parent as printed.

Sample 1 — target: CCNE2, cyclin fold, Cln2 fusion (human); technique: yeast growth competition, sequencing; matrix: yeast; notes: strong parent motif; reference: not given; reading: higher = stronger binding
Starting sequence: CDC25A docking peptide (human); PPHRRRLLFACSP; partner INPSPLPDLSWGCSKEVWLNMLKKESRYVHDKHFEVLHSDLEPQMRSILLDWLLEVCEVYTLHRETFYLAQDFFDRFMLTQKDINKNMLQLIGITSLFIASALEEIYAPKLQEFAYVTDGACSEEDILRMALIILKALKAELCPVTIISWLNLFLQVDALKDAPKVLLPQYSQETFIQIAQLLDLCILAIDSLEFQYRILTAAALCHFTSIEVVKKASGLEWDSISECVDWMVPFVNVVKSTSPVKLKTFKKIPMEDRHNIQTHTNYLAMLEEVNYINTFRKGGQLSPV
| Change | normalised enrichment score |
| --- | --- |
| PPHRRRLLFACFP [S12F] | 1.65 |
| MPHRRRLLFACSP [P1M] | 2.05 |
| PPHRRRLLFECSP [A10E] | 3.37 |
| PPHRRRLLFQCSP [A10Q] | 2.04 |
| PPHRRPLLFACSP [R6P] | -0.436 |
| PPHRRVLLFACSP [R6V] | 1.69 |
| PPHRRRLLDACSP [F9D] | 0.338 |
| PPHRRRNLFACSP [L7N] | 0.673 |
| PPHRRRHLFACSP [L7H] | 0.458 |

Sample 2 — technique: DHFR PCA, deep sequencing; matrix: yeast; with: (+)-ABA 0.11 µM; reference: wild-type fitted maximum; reading: higher = stronger binding
Target: ABI1, truncated, D143A, DHFR fusion (Arabidopsis thaliana)
Notes: methotrexate growth selection, single substitutions
Starting sequence: PYL1, truncated, DHFR fusion (Arabidopsis thaliana); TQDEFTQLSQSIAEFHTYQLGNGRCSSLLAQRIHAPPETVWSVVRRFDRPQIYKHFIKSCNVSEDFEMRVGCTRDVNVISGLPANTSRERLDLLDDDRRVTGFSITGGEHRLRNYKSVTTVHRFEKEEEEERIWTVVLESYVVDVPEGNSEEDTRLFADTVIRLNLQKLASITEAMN
| Change | relative binding score [%] |
| --- | --- |
| L8V | 2.69 |
| R74G | 19.4 |
| V145E | 7.82 |
| V142S | 20.1 |
| S140E | 8.43 |
| R113W | 2.05 |

Sample 3 — technique: Sort-seq; item: YFP reporter; matrix: E. coli; notes: PhoQ-PhoP variant library; with: 10 µM Mg2+; reference: high Mg2+ state; reading: higher = stronger signaling
Substance: PhoQ, residues 284 288 289 292 302 303 SASVAL
| target | fold induction |
| --- | --- |
| PhoP, residues 12 14 15 18 19 SHWTV (Escherichia coli, UniProt P23836) | 1.15 |
| PhoP, residues 12 14 15 18 19 QYCSL (Escherichia coli, UniProt P23836) | 3.41 |
| PhoP, residues 12 14 15 18 19 STHWV (Escherichia coli, UniProt P23836) | 0.759 |

Sample 4 — technique: protein binding microarray; form: double-stranded DNA, one strand shown; matrix: in vitro; concentration: not given; reference: not given; reading: higher = stronger binding
Target: Histone acetyltransferase KAT6A, winged helix 2, GST fusion (KAT6A, Homo sapiens, UniProt Q92794, residues 85-181)
Notes: 8-mer, flanks averaged, mean of 2 arrays, mostly near background
Residues (chain): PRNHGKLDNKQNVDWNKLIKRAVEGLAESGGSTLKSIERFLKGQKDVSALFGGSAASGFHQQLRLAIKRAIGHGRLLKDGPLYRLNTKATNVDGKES
| Strand | E-score |
| --- | --- |
| CCATATCA | 0.0299 |
| GGGTTAGA | -0.17 |
| AGTGAACC | -0.0441 |
| AGGACCCA | -0.129 |
| CGTCACCA | -0.00867 |
| AGCCGGCC | 0.187 |

Excerpt of the above (sample 2):
| Change | relative binding score [%] |
| --- | --- |
| V145E | 7.82 |
| L8V | 2.69 |
| R113W | 2.05 |
